Measured values from different studies.
Lines come from different studies, so protocols differ. ± gives the spread as reported.
Organism: Plasmodium falciparum

SMILES	test	system	setting	EC50 [nM]
CC(=O)NC(C)(C)C(=O)N[C@@H](C)C(=O)NC(C)(C)C(=O)N[C@@H](C)C(=O)NC(C)(C)C(=O)N[C@@H](C)C(=O)N[C@@H](CCC(N)=O)C(=O)NC(C)(C)C(=O)N[C@H](C(=O)NC(C)(C)C(=O)NCC(=O)N[C@@H](CC(C)C)C(=O)NC(C)(C)C(=O)N1CCC[C@H]1C(=O)N[C@H](C(=O)NC(C)(C)C(=O)NC(C)(C)C(=O)N[C@@H](CCC(N)=O)C(=O)N[C@@H](CCC(N)=O)C(=O)N[C@H](CO)Cc1ccccc1)C(C)C)C(C)C	parasite growth	DD2	drug-resistant strain	560
C[C@H]1[C@@H](CC(=O)NCCCC(=O)N[C@@H](CC(=O)NC(C)(C)C)C(=O)NCCNC(=O)c2cc(-c3ccccc3F)ccc2F)O[C@@H]2O[C@@]3(C)CC[C@H]4[C@H](C)CC[C@@H]1[C@@]24O3	parasite growth	Dd2 beta5 A49S, proteasome inhibitor-resistant, erythrocytic stage	72 h	> 2770
Cc1cc(Nc2ccc(S(F)(F)(F)(F)F)cc2)n2nc(C(C)(F)F)nc2n1	parasite growth	Dd2 DHODH C276F clone CL1	–	360 ± 46
Cc1[nH]c2ccccc2c(=O)c1-c1ccc(Oc2ccccc2)cc1	parasite growth, SYBR Green	DD2	72 h, drug-resistant strain, blood stage	10
CC[C@@](C)(NC(=O)[C@@H]1CCCN1C(=O)C(C)(C)NC(=O)[C@@H](NC(=O)[C@H](C)NC(=O)[C@@H]1CCCN1C(=O)C(C)(C)NC(=O)[C@H](CC(C)C)NC(=O)[C@H](CCC(N)=O)NC(=O)C(C)(C)NC(C)=O)C(C)C)C(=O)N[C@@H](CC(C)C)C(=O)NC(C)(C)C(=O)N1CCC[C@H]1C(=O)N[C@H](CO)CC(C)C	parasite growth	DD2	drug-resistant strain	1320
CC(C)C[C@@H]1NC(=O)[C@@H](Cc2ccccc2)NC(=O)[C@H](CCCCCC(=O)C2CO2)NC(=O)[C@@H]2CCCCN2C1=O (stereo partly shown)	parasite growth, SYBR Green	DD2	drug-resistant strain, blood stage	120
CC[C@H](C)[C@@H](C(=O)O[C@@H](CC(C)C)C(=O)N[C@@H](CC(C)C)C(=O)N[C@@H](C)/C=C/C(=O)N1C(=O)C=C(OC)[C@@H]1C)N(C)C	parasite growth, flow cytometry	D10	75 h, blood stage	700
Cc1cc(Nc2ccc(S(F)(F)(F)(F)F)cc2)n2ncnc2n1	parasite growth, [3H]hypoxanthine uptake	3D7	–	~200
C[C@@H]1NC(=O)[C@H](CCCCCC(=O)[C@@H]2CO2)NC(=O)[C@H]2CCCN2C(=O)[C@H](Cc2ccccc2)NC1=O	parasite growth, SYBR Green I	3D7, drug-sensitive	72 h	10 ± 1
Clc1ccc2nc(-c3ccncc3)cc(NCCCCN3CCOCC3)c2c1	parasite growth, SYBR Green	DD2	72 h, drug-resistant strain, blood stage	> 400
CC(C)C[C@@H](/C=C/S(C)(=O)=O)NC(=O)[C@H](CC(C)C)NC(=O)[C@H](Cc1c[nH]c2ccccc12)NC(=O)CN1CCOCC1	asexual blood stage growth	W2	72 h	15
CN(C)CCNc1cc(/C=C/c2ccc(C(F)(F)F)cc2)nc2ccc(Cl)cc12	parasite growth, SYBR Green	DD2	72 h, drug-resistant strain, blood stage	≤ 15
CC(=O)NC(C)(C)C(=O)N[C@@H](C)C(=O)NC(C)(C)C(=O)N[C@@H](C)C(=O)NC(C)(C)C(=O)N[C@@H](C)C(=O)N[C@@H](CCC(N)=O)C(=O)NC(C)(C)C(=O)N[C@@H](CC(C)C)C(=O)NC(C)(C)C(=O)NCC(=O)N[C@@H](CC(C)C)C(=O)NC(C)(C)C(=O)N1CCC[C@H]1C(=O)N[C@H](C(=O)NC(C)(C)C(=O)NC(C)(C)C(=O)N[C@@H](CCC(N)=O)C(=O)N[C@@H](CCC(N)=O)C(=O)N[C@H](CO)Cc1ccccc1)C(C)C	parasite growth	DD2	drug-resistant strain	320

Some of these lines once more:
SMILES	test	system	setting	EC50 [nM]
CC[C@H](C)[C@@H](C(=O)O[C@@H](CC(C)C)C(=O)N[C@@H](CC(C)C)C(=O)N[C@@H](C)/C=C/C(=O)N1C(=O)C=C(OC)[C@@H]1C)N(C)C	parasite growth, flow cytometry	D10	75 h, blood stage	700
